Published values from different studies.
Parts stem from different laboratories: compare values within a part only.

Series 1 — method: universal PBM; form: double-stranded DNA, one strand shown; medium: in vitro; tested at: 600 nM; reading: higher = stronger binding
Target: Sal-like protein 4, full length isoform A (SALL4, Homo sapiens, UniProt Q9UJQ4, residues 1-1053)
UniProt Q9UJQ4, sequence (whole entry, looked up): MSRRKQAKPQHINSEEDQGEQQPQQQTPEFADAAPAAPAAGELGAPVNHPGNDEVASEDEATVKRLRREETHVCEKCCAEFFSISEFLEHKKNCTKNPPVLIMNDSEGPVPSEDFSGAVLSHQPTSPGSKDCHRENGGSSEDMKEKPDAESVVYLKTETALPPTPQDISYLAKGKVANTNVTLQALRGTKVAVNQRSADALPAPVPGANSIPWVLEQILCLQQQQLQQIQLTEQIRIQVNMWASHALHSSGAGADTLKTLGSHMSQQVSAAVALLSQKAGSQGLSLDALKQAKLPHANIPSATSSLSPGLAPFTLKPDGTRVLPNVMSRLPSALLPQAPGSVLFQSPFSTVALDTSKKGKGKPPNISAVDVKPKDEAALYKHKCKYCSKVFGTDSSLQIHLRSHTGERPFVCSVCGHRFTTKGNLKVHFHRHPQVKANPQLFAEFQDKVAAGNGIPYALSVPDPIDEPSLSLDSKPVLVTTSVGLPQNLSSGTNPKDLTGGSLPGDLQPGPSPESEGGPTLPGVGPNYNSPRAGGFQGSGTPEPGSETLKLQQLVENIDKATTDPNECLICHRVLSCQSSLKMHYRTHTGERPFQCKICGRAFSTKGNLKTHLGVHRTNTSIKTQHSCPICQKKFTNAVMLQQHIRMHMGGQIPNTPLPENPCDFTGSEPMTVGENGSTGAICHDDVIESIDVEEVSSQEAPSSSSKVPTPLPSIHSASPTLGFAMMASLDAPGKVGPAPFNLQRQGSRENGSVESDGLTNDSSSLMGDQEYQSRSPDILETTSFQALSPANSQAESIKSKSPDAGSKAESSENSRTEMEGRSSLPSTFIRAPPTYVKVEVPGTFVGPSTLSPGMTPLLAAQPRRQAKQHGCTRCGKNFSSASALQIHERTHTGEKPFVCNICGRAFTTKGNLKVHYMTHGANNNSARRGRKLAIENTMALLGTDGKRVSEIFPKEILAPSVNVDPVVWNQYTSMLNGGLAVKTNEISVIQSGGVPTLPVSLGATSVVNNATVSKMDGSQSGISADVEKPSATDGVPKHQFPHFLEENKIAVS
Setting: 8-mer, flanks averaged, mean of replicates
Sequence | E-score
GGCCAATA | 0.0889
AAAAGTCA | 0.0778
ATAGTGCG | -0.112
ATGCGTGA | -0.0729
GATACAGA | 0.0367
ACTATCAC | 0.147
ACGCAAGC | -0.0375
ACACACAC | -0.0702
CCCGCAAA | 0.0227
CCGACGAC | -0.0758
ATACAGCG | 0.112
GAATGAAA | 0.169
GACTGCGC | -0.141
AAACACGT | 0.0806
GGCAGTAC | -0.106
ATGGCCTA | 0.0314
AGACACGC | -0.237
CAGGCGCA | -0.237
CACCGTCC | -0.297
AAAAGTTA | 0.261
GGGGTCAC | -0.323
GGACGCTA | -0.16
CTGTCCCC | -0.364
GTGTGACA | -0.0423
ATGATCAC | 0.156

Series 2 — method: protein-binding microarray; form: double-stranded DNA, one strand shown; medium: in vitro; tested at: 250 nM; setting: 60-bp whole probe; with: salmon DNA 0.4 mg/ml; reference: random background probes; reading: higher = stronger binding; constant ends, left off below: GCCTAGCAC … GTCTTGATTCGCTTGACGCTGCTG
Target: Interferon regulatory factor 7, full length, phosphomimetic (IRF7, Homo sapiens, UniProt Q92985, residues 1-503, S101K/S471D/S472D/S475D/S476D/S477D/S483D/S484D/S487D)
Residues (chain): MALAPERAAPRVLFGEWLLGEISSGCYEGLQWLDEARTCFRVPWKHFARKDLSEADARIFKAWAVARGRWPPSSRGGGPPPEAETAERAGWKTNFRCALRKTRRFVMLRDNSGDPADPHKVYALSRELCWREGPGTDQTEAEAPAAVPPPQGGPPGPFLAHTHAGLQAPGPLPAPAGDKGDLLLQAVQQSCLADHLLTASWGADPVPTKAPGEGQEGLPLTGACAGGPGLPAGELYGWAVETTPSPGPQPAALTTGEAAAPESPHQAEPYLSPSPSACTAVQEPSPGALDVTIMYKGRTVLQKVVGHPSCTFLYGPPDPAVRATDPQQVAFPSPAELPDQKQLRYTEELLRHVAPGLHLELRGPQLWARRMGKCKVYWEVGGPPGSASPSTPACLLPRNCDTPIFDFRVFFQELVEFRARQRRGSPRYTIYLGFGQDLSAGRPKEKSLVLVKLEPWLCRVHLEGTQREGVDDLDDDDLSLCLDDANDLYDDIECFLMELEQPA
Sequence | log fluorescence [z-score]
AACGGTTTCCTTTCCCTGACGTGCTAG | 5.08
GACGGTCTCCTTTTCTTGACGTGCTAG | 1.02
CACCTTCTTCATCAAGGACAGTGCTAG | 0.828
GACGATATGAGACTGGAGACGTGCTAG | -0.415
TACGGTCTCGGACTGGGGACGTGCTAG | 0.124
TTAGGTTTCCTTTTCCCTTAGTGCTAG | 6.55
CGCTCTGTGCTCTTTGGGCTGTGCTAG | -0.499
TTAGGTTTCGGTTCCCGTTAGTGCTAG | 13.3
TCAATCATTGTTTTCAGTTTGTGCTAG | 1.57
TTAGGTCTCGGGTTTCGGTTAGTGCTA | 7.57
TGGGACCAGCACAGACAGTCGTGCTAG | -0.073
GACGGTTTCGGTCTCGCGACGTGCTAG | 7.86
ACTAGTTTCTTTTCTTTTCTGTGCTAG | 7.8
GACGGTCTCCTCATCCTGACGTGCTAG | -0.106
TCATTTTCATTGTTTTTCACTGTGCTA | 1.6
GACGGTATCCTTATCCTGATGTGCTAG | -0.0237
GACGGGCTCGGTATCGGGACGTGCTAG | 0.652

Series 3 — method: RNA Bind-n-Seq; form: RNA; medium: in vitro; tested at: 365 nM; reference: no-protein control; reading: higher = stronger binding
Target: RNA binding protein fox-1 homolog 2, RRM domain, GST-SBP tag (RBFOX2, Homo sapiens, UniProt O43251-10, residues 100-194)
Setting: natural RNA segment, single round, ends assumed
Constant ends, left off below: GGGAGUUCUACAGUCCGACGAUC … UGGAAUUCUCGGGUGCCAA
Target sequence (chain): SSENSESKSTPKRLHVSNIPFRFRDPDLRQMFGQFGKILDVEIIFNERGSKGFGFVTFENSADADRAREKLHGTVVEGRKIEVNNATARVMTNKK
Sequence | RBNS enrichment (R)
AACAGUUCAUUGCUUUGGAAUGGCCGUGAAAGAGAUCUAACUGUGGAUGCUUACUGAGGCUUGUAUGUAGUGUUGGUUACUGGGGAAGUGUUUGGCCUCCUUGGACUGUG | 2.16
UUCCCUUUGGGUAGCUGUGAUCUGCAGUAAGUCUGGGGAGAACCUGAGUACACCACUACACGUUGGGUAAAAGCAGGUGGGGCCUUUCUGGUUGGAUUAGGCACCCUUCA | 0.383
UAGCCGGCUCCUGAAAGCAGGCGACAUCAGAGUGGUAACAGUCAGUAGGCUGCAGUAGGUGUCCUACCUCGAGGCCCUCAGAUGGAGGUAACACAUUAGGAUUGUGGGAC | 0.234
CGACUGAGGAUUAUGCAACGUGGUCCAACCGGAGCGGCCAGCAUGACCAGCUGUCCAGGGGCUGCCUCCUGCCUUUUCUUUUGUAAAGACAAGACCCUUGGGAGUUUUAA | 1.38
GGCGCGGUGGCUCACGCCUGUAAUCCCAGCACUUUGGGAGGCCAAGGUGGGCGGAUCACAAGGUCAGGAGUUCGAGACCAACCUAGCCAACAUGGUGAAACCCCGUCUCU | 0.208
GUCUCUGAUACAUAAAAUUAUUUUAAGCAUUUUCUCAAUCAUUAAAUGUUACUGCCAGUCAUAAGUGGCUUUUUAAUUACCAGUUUUCAUUGCACUUCACUCUGUUUUCA | 0.583
CUCACCUCAGCCUCCCAAAAUCCUGGGGUUACAGAUGUGAGCUACCACUCACGGCCCAAAUCUUCUUGAUCAUAUGUUUAAAUAUAUUUUUUAAUAUUUGGAGCAUGAGU | 0.359
AAGCUGCUUGUUAACAUGGAAGACUUCUCCACUCUCCCUUAGUGAGAACAAAUACACACUUGACAUGGGAGCAAACUGGUUCUGAACUUUGUGACUGUUUGCUAGUGACG | 0.467
UUUCUACAACUGGAGUUUUUUUAUACAAUGUUCUUUGUCUCAAAAUAAAGCAAUGUGUUUUUUCGGACAUGCUUUUCUGCCACUCCAUAUUAAAACAUAUGACCAUUGAG | 0.474
AAUCAUGGUAUAUCCUCAGGAGAAUGUUCCGUGUCUCGCAACAACUAAUUAUAUUGCAAAUUAUUAGGGCUUCAUUGUAAUCUACUUUAUUAAUGAAAAAUGACAAAGCA | 0.832
UCCCCCCACCUUUUUUCCCCUUGUCCUUGCAGCUGGAGAUGUGCUGGGAGUAGCAGGCCAGCCUCGGAAAUGGACAUGGGGACCUCGUGGAAGCCACAGCAACCUGGUUG | 0.462
UUGUGUGGAAGCAAUGUGGAGUGAAUGAGCAUAUUUUGAUUUAAGCAAGGUAGCUUGGAAUACCUUUUUUAAAAACAACUGGAUAUAAAUAUGUCUGACAGGAUUGGAAU | 4.65

Series 4 — method: RNAcompete; form: RNA; medium: in vitro; tested at: 20 nM; setting: 7-mer, probes averaged, single round; reference: mean of 7-mers; reading: higher = stronger binding
Target: PABPC1L2, full length, GST fusion (mouse, UniProt A0ABA7IW68)
Construct (chain): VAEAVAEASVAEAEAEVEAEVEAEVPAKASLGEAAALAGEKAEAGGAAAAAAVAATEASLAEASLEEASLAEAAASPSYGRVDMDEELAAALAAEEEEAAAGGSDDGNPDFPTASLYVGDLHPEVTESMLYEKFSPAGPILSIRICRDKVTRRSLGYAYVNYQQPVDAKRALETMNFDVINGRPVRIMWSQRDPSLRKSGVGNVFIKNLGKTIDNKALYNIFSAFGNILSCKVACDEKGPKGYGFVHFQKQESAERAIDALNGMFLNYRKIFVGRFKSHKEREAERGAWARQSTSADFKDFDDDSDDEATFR
Sequence | 7-mer Z-score
CUCCACC | -0.267
CACUUCA | -0.173
CAGCGAG | -0.0863
CGUGGAG | 0.12
GCGUUAG | -0.304
GAAACCC | -0.0881
UCACAGA | 0.0551
UCCUGCG | -0.289
GGGCAGC | 0.363
UUCUCCU | -0.479
UGACUCA | -0.24
AAAUCGU | 0.615
GCCCGCG | -0.237
AGUACAA | 0.492
CCGUUAG | -0.461
ACCUAAC | -0.248
AAUCUAU | 0.104

Series 5 — method: protein binding microarray; form: double-stranded DNA, one strand shown; medium: in vitro; tested at: not given; reference: not given; reading: higher = stronger binding
Target: Histone acetyltransferase KAT6A, both winged helices, GST fusion (KAT6A, Homo sapiens, UniProt Q92794, residues 1-181)
Setting: 8-mer, flanks averaged, mean of 2 arrays, mostly near background
Construct (chain): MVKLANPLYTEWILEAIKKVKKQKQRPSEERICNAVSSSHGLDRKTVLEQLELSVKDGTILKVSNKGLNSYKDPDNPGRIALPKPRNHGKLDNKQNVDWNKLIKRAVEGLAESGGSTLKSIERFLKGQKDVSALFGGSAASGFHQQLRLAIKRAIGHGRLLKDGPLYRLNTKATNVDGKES
Sequence | E-score
ATATACAC | -0.0144
AGTGGTGA | -0.131
CCGCGCCG | 0.361
CGGGGAGA | 0.0903
ATCTAAAT | -0.0432
CATTGCCG | 0.224
CCATTGGG | -0.131
AGACCCCA | -0.149
ACGCGTCG | 0.357
TCGTACAA | 0.0526
AAGAGATC | -0.153
ATGTATGC | 0.103
GCACCCTA | -0.079
CCTATTAG | -0.0322
GAGGAACC | 0.00736
TCATAAGA | -0.0851
AACGAAGT | -0.198
GCACGGGA | 0.206

A few entries again (series 1):
Sequence | E-score
ACTATCAC | 0.147
ACACACAC | -0.0702
CACCGTCC | -0.297
ATGGCCTA | 0.0314
GATACAGA | 0.0367
GGGGTCAC | -0.323
